Measured values gathered from unrelated publications.
± gives the spread as reported.
USP3 ZnF-UBD domain: Ubiquitin carboxyl-terminal hydrolase 3, ZnF-UBD domain (USP3, Homo sapiens, UniProt Q9Y6I4)
Sequence of UniProt Q9Y6I4 (whole entry, looked up): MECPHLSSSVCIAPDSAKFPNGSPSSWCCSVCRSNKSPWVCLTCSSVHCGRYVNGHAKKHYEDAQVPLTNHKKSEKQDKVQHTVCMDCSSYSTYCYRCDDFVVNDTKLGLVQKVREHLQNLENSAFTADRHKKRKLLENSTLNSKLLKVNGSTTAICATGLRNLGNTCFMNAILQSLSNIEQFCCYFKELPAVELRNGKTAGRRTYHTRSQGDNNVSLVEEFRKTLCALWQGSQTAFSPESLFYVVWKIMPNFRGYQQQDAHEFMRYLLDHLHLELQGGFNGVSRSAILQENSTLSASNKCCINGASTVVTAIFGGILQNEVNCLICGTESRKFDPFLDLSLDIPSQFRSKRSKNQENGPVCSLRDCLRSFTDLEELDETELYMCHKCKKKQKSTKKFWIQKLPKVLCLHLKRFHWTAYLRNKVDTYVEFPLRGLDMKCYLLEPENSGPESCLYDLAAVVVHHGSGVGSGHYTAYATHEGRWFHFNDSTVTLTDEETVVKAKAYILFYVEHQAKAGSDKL

SMILES	tested on	assay	system	conditions	scale	measurement	value
COc1ncc(-c2nc3c(n2C(C)C)[C@H](c2ccc(Cl)cc2)N(c2cc(Cl)cn(C)c2=O)C3=O)c(OC)n1			human patients, plasma	oral, 200 mg, high-dose arm, cycle 1 day 1		median Tmax	3 h
Cc1cc(-c2nccc3c2ccn3CC(=O)Nc2ccc(-c3cnccn3)cn2)ccn1			human	15 mg once daily, multiple ascending dose		subjects with cardiac disorders	0%
FC(F)(F)c1ccc(CNc2ccc(Cc3c[nH]c4ncc(Cl)cc34)cn2)cn1		item: Vomiting	patients with advanced solid tumours, non-TGCT cohort	oral, 1000 mg/day, grade 3 or higher		treatment-related adverse events	0%
CN1C(=O)[C@@H](NC(=O)c2nnc(Cc3ccccc3)[nH]2)COc2cccnc21		phase I multiple ascending dose	human, male and female	oral, 200 mg, 14 days		participants with any AE of special interest	12.5%
C=CC(=O)Nc1cc(Nc2nccc(-c3cn(C4CC4)c4ccccc34)n2)c(OC)cc1N(C)CCN(C)C		long-term storage stability	rat plasma	160 ng/mL, 3 weeks, -80 °C	relative to: nominal concentration	relative error	-10.6%
CSCC[C@H](NC(=O)[C@@H](N)CCSC)C(=O)N[C@@H](CCCNC(=N)N)C(=O)N[C@@H](Cc1c[nH]c2ccccc12)C(=O)N[C@@H](CO)C(=O)N[C@@H](CCCNC(=N)N)C(=O)N[C@@H](CCCCN)C(=O)N[C@@H](CCSC)C(=O)N1CCC[C@H]1C(=O)N[C@@H](CS)C(=O)N[C@H](C(=O)N[C@@H](CO)C(N)=O)C(C)C		12G5 competition, SUP-T1 cells	human plasma	concentration not given, 8 h		remaining activity	1 ± 0.3%
O=C(c1ccc([C@H]2[C@@H](F)[C@@H](F)C[C@@H](F)[C@H]2F)cc1)N1CC(O)C1		hepatocyte stability	cryopreserved rat hepatocytes	1 µM		hepatic clearance	10 mL/min/kg
CNC(=O)c1ccc(-c2cnc3ncc(Cc4ccc5ncccc5c4)n3n2)cc1F		item: Nausea, all grades	hepatocellular carcinoma patients	oral, 600 mg twice daily, expansion cohort, any causality		patients with adverse event	46%
C[C@@H](O)[C@@H](CO)NC(=O)[C@@H](CCCNC(=N)N)NC(=O)[C@@H]1CCCN1C(=O)[C@@H]1CSSC[C@H](NC(=O)[C@H](Cc2ccccc2)NC(=O)CN2CCN(CC(=O)O)CCN(CC(=O)O)CCN(CC(=O)O)CC2)C(=O)N[C@@H](Cc2ccc(O)cc2)C(=O)N[C@@H](Cc2ccccc2)C(=O)N[C@@H](CCC(N)=O)C(=O)N[C@@H](CC(N)=O)C(=O)N1 [gallium-68 labelled]			normal saline	4 h, room temperature		radiochemical purity	> 99%
CCCCC(CC)COC(=O)CC(C(=O)OCC(CC)CCCC)S(=O)(=O)O.O=C(NCCCNc1nc(Nc2cccc(NC(=O)N3CCCC3)c2)ncc1I)c1cccs1		thermogravimetric analysis		nitrogen 10 °C/min		degradation onset temperature	~230 °C
O=C(O)Cn1cc2ccccc2n1	USP3 ZnF-UBD domain					Kd	519 µM
CC(C)(C(=O)N1CCOc2c(C#N)cncc2C1)C(F)F		item: Dyspepsia	human	oral, 15 mg twice daily, 14 days, multiple ascending dose		subjects with adverse event	12.5%
O=C(O)CC[C@H](NC(=O)N[C@@H](CCCCNC(=O)[C@H](Cc1ccc2ccccc2c1)NC(=O)CCCCCNC(=O)CN1CCN(CC(=O)O)CCN(CC(=O)O)CCN(CC(=O)O)CC1)C(=O)O)C(=O)O [gallium-68 labelled]		gamma counting	mouse, 22Rv1 xenograft, bone	intravenous, 3.7 MBq, 2 h		tissue uptake	3.45 ± 0.5 %ID/g
C[C@@H](N)C1CCN(S(=O)(=O)c2cccc3cnccc23)CC1			healthy volunteers	25 mg, fasted		participants with headache	16.7%
CN[C@H](CC(C)C)C(=O)N[C@H]1C(=O)N[C@@H](CC(N)=O)C(=O)N[C@H]2C(=O)N[C@H]3C(=O)N[C@H](C(=O)N[C@H](C(=O)O)c4cc(O)cc(O)c4-c4cc3ccc4O)[C@H](O)c3ccc(c(Cl)c3)Oc3cc2cc(c3O[C@@H]2O[C@H](CO)[C@@H](O)[C@H](O)[C@H]2O[C@H]2C[C@](C)(N)[C@H](O)[C@H](C)O2)Oc2ccc(cc2Cl)[C@H]1O			guinea pig, serum	local, 10 mg/mL, poloxamer 407 hydrogel		serum concentration	not detected
Cc1ccc(O[C@@H]2O[C@H](C(=O)O)[C@@H](O)[C@H](O)[C@H]2O)cc1		ultrafiltration	normal rat serum	37 °C		serum protein binding	45 ± 30%
Cc1cc(NC2CCN(C(=O)OC3CCN(C(=O)/C=C/CN(C)C)C3)CC2)n2ncc(C(C)C)c2n1 (stereo not drawn)			patients with advanced solid tumours	dose not given, QD arm, grade 3 or higher		patients with Dyspepsia	0%
O=C(CC1CCOCC1)Nc1ccc(C2CCCCC2)cc1			cryopreserved rat hepatocytes	1 µM		hepatic clearance	47 mL/min/kg
CCOc1c([C@H](C)n2nc(C)c3c(N)ncnc32)cc(Cl)c(F)c1[C@@H]1CNC(=O)C1		linear mixed-effects model	human B-cell malignancy patients, plasma	oral		concentration-ΔQTcF slope	0.00176 ms/nM
OC[C@H]1O[C@@H](c2ccc(F)c(Cc3cc4ccccc4s3)c2)[C@H](O)[C@@H](O)[C@@H]1O			Japanese type 1 diabetes patients	oral, 25 mg/day	relative to: patients	hypoglycaemia adverse events	5%
O=C(O)CCC(=O)O.[2H]C([2H])([2H])Oc1cc(C)c2[nH]ccc2c1CN1CC[C@@H](C2CC2)C[C@H]1c1ccc(C(=O)O)cc1			healthy Chinese subjects	100 mg, single ascending dose		TEAE elevated blood triglycerides	16.7%
Cc1ccc([C@@H]2O[C@H](CO)[C@@H](O)[C@H](O)[C@H]2O)cc1Cc1ccc(-c2ccc(F)cc2)s1		item: inorganic phosphorus	Japanese type 2 diabetes patients	400 mg, day 18, 24 h urine collection	relative to: baseline	urinary phosphate excretion change	116 mg
CC(C)C[C@@H]1NC(=O)[C@H](C)NC(=O)[C@H](Cc2ccccc2)NCC2=CC=C(CN(C)C1=O)O2		PAMPA	2% lecithin in dodecane	100 µM, 17 h, pH 6.4, 37 °C		-log Pe	5.71 + 0.03
N#Cc1ccc2c(c1)[C@H]1CCCN(C(=O)c3ccc4[nH]cnc4c3)[C@H]1C2			human, plasma	oral, 240 mg once daily		Vz/F at steady state	847 L

SMILES	tested on	assay	system	conditions	scale	measurement	value
CN(C)CCC(=O)Nc1ccc([C@H]2[C@@H](F)[C@@H](F)C[C@@H](F)[C@H]2F)cc1		hepatocyte stability	cryopreserved mouse hepatocytes	1 µM		hepatic clearance	24 mL/min/kg
CCOCc1nc(O)c(-c2nnc(Cc3ccc(Cl)cn3)o2)c(O)c1-c1c(OC)cccc1OC			rat, anaesthetised, cannulated, plasma	intravenous infusion, 1 µg/kg/min, 20 min after infusion stop, washout		plasma concentration	0.231 µM
CC[C@H](C)[C@@H]([C@@H](CC(=O)N1CCC[C@H]1[C@H](OC)[C@@H](C)C(=O)N[C@H](C)[C@@H](O)c1ccccc1)OC)N(C)C(=O)[C@@H](NC(=O)[C@H](C(C)C)N(C)C(=O)OCc1ccc(NC(=O)[C@H](CCCNC(N)=O)NC(=O)[C@@H](NC(=O)CCCCCN2C(=O)CC(SC[C@H](NC(=O)[C@H](CC(=O)O)NC(=O)[C@H](CCCNC(=N)N)NC(=O)[C@H](CC(=O)O)NC(=O)CCCCn3cc(CCCC(=O)Nc4nnc(S(N)(=O)=O)s4)nn3)C(=O)O)C2=O)C(C)C)cc1)C(C)C (stereo partly drawn)		LC-MS, item: intact conjugate	mouse serum	100 µg/mL, 37 °C		half-life	11.2 h
NC1(C(=O)N[C@@H](CCO)c2ccc(Cl)cc2)CCN(c2nc[nH]c3nccc2-3)CC1			metastatic CRPC patients	480 mg b.i.d., grade 3 to 4, treatment-related, added: enzalutamide 160 mg daily		incidence of Arthralgia	0%
Cc1ccc(O)c(-n2nc3ccccc3n2)c1		exposure assessment	human, age 3-6 years, sunscreen			dermal uptake	1090 ng/kg body weight/day
C#C[C@]1(CO)O[C@@H](n2cnc3c(N)nc(F)nc32)C[C@@H]1O			human, plasma	oral, 100 mg single dose, extrapolated beyond 96 h		AUC(0-168 h)	11 µM·h
Cc1ccc(C(=O)N(CCCN)C(c2nc3snc(C)c3c(=O)n2Cc2ccccc2)C(C)C)cc1 (stereo not drawn)			human patients	intravenous, 2 mg/day		grade ≥3 hyperbilirubinemia patients	17%
O=C(N[C@H](Cc1c[nH]c2ccccc12)C(=O)Nc1ccncc1)c1ccc(-c2ccc(F)c(C(F)(F)F)c2)cc1F			Swiss Webster mouse, female, intestine	oral, 50 mg/kg, 8 h, 20% HPβCD vehicle		concentration	11.5 µM
CN(Cc1cccnc1)C(=O)c1ccc(C2CCCCC2)cc1		liver microsome stability	cynomolgus liver microsomes	1 µM		hepatic clearance	38 mL/min/kg
Cc1ccc(Sc2ccccc2N2CCNCC2)c(C)c1		item: haemoglobin decreased	healthy adult men	oral, 10 mg daily, 12 days		participants with TEAE	0%
O=C(NCCc1cccnc1)c1ccc([C@H]2[C@@H](F)[C@@H](F)C[C@@H](F)[C@H]2F)cc1		hepatocyte stability	cryopreserved rat hepatocytes	1 µM		hepatic clearance	43 mL/min/kg
NC(=O)N1c2ccccc2C=Cc2ccccc21		item: gastrointestinal disorders (SOC)	human male	oral, dose not given, AEs, treatment-related, on drug, CTCAE		adverse events incidence	33%
O=C(NCc1cc[nH]n1)c1ccc([C@H]2[C@@H](F)[C@@H](F)C[C@@H](F)[C@H]2F)cc1		hepatocyte stability	cryopreserved mouse hepatocytes	1 µM		hepatic clearance	37 mL/min/kg
C[C@@H]1CCO[C@H]2Cn3cc(C(=O)NCc4ccc(F)cc4F)c(=O)c(O)c3C(=O)N12			human paediatric patients, weight 6 to under sample A kg, plasma	oral, 8 mg granules, 24 h, steady state, geometric mean, population PK post-hoc, N 2		trough concentration (C24)	452 ng/mL
CC(=O)O[C@H]1C(=O)[C@@]2(C)[C@H]([C@H](OC(=O)c3ccccc3)[C@]3(O)C[C@H](OC(=O)[C@H](O)[C@@H](NC(=O)c4ccccc4)c4ccccc4)C(C)=C1C3(C)C)[C@]1(OC(C)=O)CO[C@@H]1C[C@@H]2O		item: peripheral oedema	patients with advanced solid tumours	intravenous, dose not given, grade 1 and 2, possibly related to drug		adverse event incidence	11%
O=C(O)CCC(=O)c1ccc(S(=O)(=O)N2CCCC2)cc1	USP3 ZnF-UBD domain					Kd	91.5 µM
O=C(NCc1cc[nH]n1)c1ccc(C2CCCCC2)cc1		liver microsome stability	human liver microsomes	1 µM, without NADPH		hepatic clearance	3.9 mL/min/kg
CC1=NN(/C(=N/c2nnc(C)s2)Nc2ccc(C)c(C)c2)C(c2cc(F)c(F)c(F)c2)S1 (stereo not drawn)		plasma stability	mouse plasma			half-life	0.418 h
CCN1/C(=C/C(C)=O)Sc2ccc(F)cc21			cynomolgus monkey	oral, 100 mg/kg, 1 h post-dose		mean blood pressure	86 ± 4 mmHg
COc1ccc2c(c1)sc(-c1ccc(N(C)C)cc1)[n+]2C			PBS	free dye		excitation maximum wavelength	411 nm
O=C(OC(C(F)(F)F)C(F)(F)F)N1CCN(Cc2cccc(Oc3ccccc3)c2)CC1		PET blocking study	rhesus monkey, brain CB	0.01 mg/kg, compound pretreatment, added: [18F]T-401 tracer		k2	0.105 min⁻¹
CC(C)c1nc(N(C)S(C)(=O)=O)nc(-c2ccc(F)cc2)c1/C=C/[C@@H](O)C[C@@H](O)CC(=O)O		item: toothache	healthy men	oral, dose not given, 8 days, treatment-emergent, crossover trial		subjects with adverse event	0%
O=C(NCCc1cccnc1)c1ccc(C2CCCCC2)cc1		hepatocyte stability	cryopreserved human hepatocytes	1 µM		hepatic clearance	19 mL/min/kg
O=C(Nc1nc2cccc(-c3ccc(CN4CCS(=O)(=O)CC4)cc3)n2n1)C1CC1		item: nervous system disorders	human rheumatoid arthritis patients	oral, 30 mg once daily, 4 weeks, regardless of relatedness		treatment-emergent adverse events	17.6%

Repeated from above:
SMILES	tested on	assay	system	conditions	scale	measurement	value
NC(=O)N1c2ccccc2C=Cc2ccccc21		item: gastrointestinal disorders (SOC)	human male	oral, dose not given, AEs, treatment-related, on drug, CTCAE		adverse events incidence	33%
O=C(NCc1cc[nH]n1)c1ccc([C@H]2[C@@H](F)[C@@H](F)C[C@@H](F)[C@H]2F)cc1		hepatocyte stability	cryopreserved mouse hepatocytes	1 µM		hepatic clearance	37 mL/min/kg
C[C@@H]1CCO[C@H]2Cn3cc(C(=O)NCc4ccc(F)cc4F)c(=O)c(O)c3C(=O)N12			human paediatric patients, weight 6 to under sample A kg, plasma	oral, 8 mg granules, 24 h, steady state, geometric mean, population PK post-hoc, N 2		trough concentration (C24)	452 ng/mL
CC(=O)O[C@H]1C(=O)[C@@]2(C)[C@H]([C@H](OC(=O)c3ccccc3)[C@]3(O)C[C@H](OC(=O)[C@H](O)[C@@H](NC(=O)c4ccccc4)c4ccccc4)C(C)=C1C3(C)C)[C@]1(OC(C)=O)CO[C@@H]1C[C@@H]2O		item: peripheral oedema	patients with advanced solid tumours	intravenous, dose not given, grade 1 and 2, possibly related to drug		adverse event incidence	11%
O=C(O)CCC(=O)c1ccc(S(=O)(=O)N2CCCC2)cc1	USP3 ZnF-UBD domain					Kd	91.5 µM
O=C(NCc1cc[nH]n1)c1ccc(C2CCCCC2)cc1		liver microsome stability	human liver microsomes	1 µM, without NADPH		hepatic clearance	3.9 mL/min/kg
